Experimental data from different studies.
Organism: Mycobacterium tuberculosis

Compound	observed	technique	strain	time	notes	MIC
CC1C(=NOCc2cn(-c3ccccc3)nn2)C(C)C(c2ccc(Br)cc2)OC1c1ccc(Br)cc1 (stereo not drawn)	microbial growth	resazurin	H37RV	–	–	3.12 µg/mL
Cc1c2c([nH]c(=O)c1CNC(=O)c1ccc(C(F)(F)F)nc1)CCCC2	microbial growth	resazurin	H37RV	–	–	> 50 µg/mL
O=C1c2ccccc2C(=O)N1c1nnc(-c2ccc(Cl)cc2)s1	microbial growth	–	H37RV	–	–	> 200 µM
CC(=O)c1sc(N/N=C/c2c(-c3ccc(Br)cc3)nc3ncccn23)nc1C	–	MABA	H37Rv ATCC 27294	–	–	6.25 µg/mL
CO[C@H]1[C@@H](O)[C@H](n2ccc(=O)[nH]c2=O)O[C@@H]1[C@@H](O[C@H]1OC(C(=O)N[C@H]2N=C(c3ccccc3)c3ccccc3NC2=O)=C[C@H](O)[C@@H]1O)C(N)=O	–	low-oxygen recovery	H37Rv pFCA-luxAB	–	non-replicating	> 100 µg/mL
CCOC(=O)c1cnc(N/N=C/c2c(-c3ccccc3)nc3ncccn23)s1	–	MABA	H37Rv ATCC 27294	–	–	12.5 µg/mL
O=C(NC12CC3CC(CC(C3)C1)C2)c1cc2cc(Cl)ccc2[nH]1	microbial growth	resazurin	H37RV	–	–	0.47 µM
CC(=O)c1sc(N/N=C/c2c(-c3ccc(C)cc3)nc3ncccn23)nc1C	–	MABA	H37Rv ATCC 27294	–	–	12.5 µg/mL
CC(C)=CCC/C(C)=C/CC/C(C)=C/CNCCOC1C2CC3CC(C2)CC1C3 (stereo not drawn)	–	–	Erdman	–	–	1 µg/mL
CCOC(=O)c1sc(N/N=C/c2c(-c3ccc(F)cc3)nc3ncccn23)nc1C	–	MABA	H37Rv ATCC 27294	–	–	1.6 µg/mL
CC1C(=NNC(=O)c2ccncc2)C(C)C(c2ccc(Cl)cc2)OC1c1ccc(Cl)cc1 (stereo not drawn)	microbial growth	resazurin	H37RV	–	–	1.56 µg/mL
[H]/N=C(/N)N[C@H]1[C@H](O)[C@@H](O)[C@H](O[C@@H]2O[C@@H](C)[C@](O)(C=O)[C@H]2O[C@@H]2O[C@@H](CO)[C@H](O)[C@@H](O)[C@@H]2NC)[C@@H](N/C(N)=N\[H])[C@@H]1O	–	MABA	H37Rv ATCC 27294	–	–	6.25 µg/mL
COc1ccc2nc(C)cc(OCC(=O)Nc3ccccc3OC)c2c1	microbial growth	resazurin	H37RV	–	–	0.7 µM
O=C(Nc1ccc(F)c(F)c1F)NC1C2CC3CC(C2)CC1C3 (stereo not drawn)	microbial growth	–	H37RV	–	–	0.0313 to 0.0625 µg/mL
COc1ccccc1C(CC(=O)c1cccc(Oc2ccccc2)c1)C(N)=O (stereo not drawn)	microbial growth	resazurin	H37RV	–	–	50 µg/mL
COc1ccc(-c2nc3ncccn3c2/C=N/Nc2nc(C)c(C(C)=O)s2)cc1	–	MABA	H37Rv ATCC 27294	–	–	12.5 µg/mL
CC(=O)NC1C(OC2OC(CC(O)C3OC(n4ccc(=O)[nH]c4=O)C(O)C3O)C(O)C(O)C2NC(=O)COCc2ccc(N3CCC(Oc4ccc(OC(F)(F)F)cc4)CC3)cc2)OC(CO)C(O)C1O (stereo not drawn)	–	–	H37Rv	–	–	> 50 µg/mL
CSC(=NNC(=O)c1ccc([N+](=O)[O-])cc1)SC	–	–	H37Rv	–	–	6.2 µg/mL
C#CCN(Cc1ccc2[nH]cnc(=O)c2c1)c1ccc(C(=O)N[C@@H](CCC(=O)O)C(=O)O)cc1	–	–	pptT knockdown with ATc	–	–	> 100 µM
COc1ccc(-c2cc(-c3ccc(-n4cccc4)cc3)nc(N)n2)c(OC)c1	microbial growth	resazurin	H37RV	7 days	–	3.12 µg/mL
Cc1cc(-c2ccccc2)[nH]c(=O)c1CNC(=O)c1ccc(C(F)(F)F)nc1	microbial growth	resazurin	H37RV	–	–	> 12.5 µg/mL
Cc1ccc2nc(C)c(C(=O)NCc3ccc(C(F)(F)F)cc3)n2c1	–	low oxygen recovery	H37Rv	–	non-replicating low oxygen	> 10 µM
C#CCN(Cc1ccc2[nH]c(N)nc(=O)c2c1)c1ccc(C(=O)N[C@@H](CCC(=O)O)C(=O)O)cc1	–	–	pptT knockdown with ATc	–	–	76.7 µM
O=c1nc(N2CCC(Oc3ccccc3Cl)CC2)sc2c([N+](=O)[O-])cc(C(F)(F)F)cc12	microbial growth	–	H37RA	–	–	0.031 µM
COC(=O)[C@@H](CCCNC(=O)OC(C)(C)C)NC(=O)c1ccc(NCc2ccc3nc(N)nc(N)c3c2Cl)cc1	–	–	pptT knockdown with ATc	–	–	< 0.1 µM
O=c1nc(N2CCC(Oc3ncc(F)cn3)CC2)sc2c([N+](=O)[O-])cc(C(F)(F)F)cc12	microbial growth	–	H37RA	–	–	0.008 µM

Compound	observed	technique	strain	time	notes	MIC
CC(C)=CCC/C(C)=C/CNCCOC1C2CC3CC(C2)CC1C3 (stereo not drawn)	–	–	H37Rv	–	–	0.035 µg/mL
CC(C)c1ccc(-c2cc(-c3ccc(-n4cccc4)cc3)nc(N)n2)cc1	microbial growth	resazurin	H37RV	7 days	–	3.12 µg/mL
O=c1nc(N2CCC(Oc3ccccc3Br)CC2)sc2c([N+](=O)[O-])cc(C(F)(F)F)cc12	microbial growth	–	H37RA	–	–	0.031 µM
CCOC(=O)CC[C@@H](NC(=O)c1ccc(N(C)Cc2ccc3[nH]c(C)nc(=O)c3c2)s1)C(=O)OCC	–	–	pptT knockdown with ATc	–	–	75.7 µM
CC(C)=CCNCCOC1C2CC3CC(C2)CC1C3 (stereo not drawn)	–	–	Erdman	–	–	4 µg/mL
CC1C(=NNC(=O)c2ccncc2)C(C)C(c2ccc(Br)cc2)OC1c1ccc(Br)cc1 (stereo not drawn)	microbial growth	resazurin	H37RV	–	–	0.78 µg/mL
Cc1ccc2nc(C(F)(F)F)c(C(=O)NCc3cccc(Cl)c3)n2c1	microbial growth	resazurin	H37RV	–	–	0.19 µM
O=C(C=Cc1cccs1)c1ccc(-n2cccc2)cc1	microbial growth	resazurin	H37RV	7 days	–	6.25 µg/mL
O=C1c2ccccc2C(=O)N1c1nnc(-c2ccccc2Cl)s1	microbial growth	–	H37RV	–	–	> 200 µM
NC(=O)C(CC(=O)c1cccc(Oc2ccccc2)c1)c1ccc(Cl)cc1 (stereo not drawn)	microbial growth	resazurin	H37RV	–	–	> 100 µg/mL
CC(=O)c1sc(N/N=C/c2c(-c3ccc(F)cc3)nc3ncccn23)nc1C	–	MABA	H37Rv ATCC 27294	–	–	3.12 µg/mL
CCc1ccn2c(C(=O)NCc3ccc(C)cc3)c(C)nc2c1	–	–	H37Rv, replicating	–	–	0.003 to 0.05 µM
CC1=C[C@@]2(C)C(=C(C)[C@H]3[C@@H]4C[C@H](C)C[C@H](C)[C@H]4[C@H]4Oc5ccc(cc5)C[C@]5(O)NC(=O)[C@]6(O[C@H]65)C(=O)[C@@H]2[C@@H]43)[C@H]1C	microbial growth	resazurin	H37RV	–	–	> 100 µM
CC(C)(C)OC(=O)NCCC[C@H](NC(=O)c1ccc(NCc2ccc3nc(N)nc(N)c3c2Cl)cc1)C(=O)O	–	–	pptT knockdown with ATc	–	–	< 0.2 µM
Cc1ccc2nc(C)c(C(=O)NCc3ccccc3)n2c1	–	–	H37Rv, replicating	–	–	0.003 to 0.05 µM
CC(=O)c1sc(N/N=C/c2c(-c3ccccc3)nc3ncccn23)nc1C	–	MABA	H37Rv ATCC 27294	–	–	12.5 µg/mL
CCc1ccn2c(C(=O)NC(C)c3ccccc3)c(C)nc2c1 (stereo not drawn)	–	–	H37Rv, replicating	–	–	2 to 3 µM
COc1ccc2nc(C)cc(OCC(=O)Nc3cc(C)cc(C)c3)c2c1	microbial growth	resazurin	H37RV	–	–	0.25 µM
Cc1cc(C)c2cc(C(=O)NC3CCCCC3)[nH]c2c1	microbial growth	–	H37RV	–	–	0.125 to 0.25 µg/mL
COc1ccc(CCNc2cc(-c3ccccc3)nc3ncnn23)cc1	microbial growth	resazurin	H37RV	–	–	0.94 µM
O=c1nc(N2CCC(Oc3ccccc3F)CC2)sc2c([N+](=O)[O-])cc(C(F)(F)F)cc12	microbial growth	–	H37RA	–	–	0.016 µM
Cc1ccc(CNC(=O)Cc2c(C)nc3ccc(C)cn23)cc1	–	–	H37Rv, replicating	–	–	2 to 4 µM
Cc1cccc(-c2nc(Nc3ccncn3)c3c(C)csc3n2)n1	microbial growth	resazurin	H37RV	–	–	0.76 µM
Cc1ccc2nc(C)c(C(=O)C(=O)NCc3ccc(N(C)C)cc3)n2c1	–	–	H37Rv, replicating	–	–	5 to 14 µM
CC1=NN(CNc2ccc(C(=O)O)c(O)c2)C(=O)/C1=N/Nn1c(-c2ccccc2)nc2ccccc2c1=O	microbial growth	resazurin	H37RV	–	–	48.9 µM

Excerpt of the above:
Compound	observed	technique	strain	time	notes	MIC
CC1=C[C@@]2(C)C(=C(C)[C@H]3[C@@H]4C[C@H](C)C[C@H](C)[C@H]4[C@H]4Oc5ccc(cc5)C[C@]5(O)NC(=O)[C@]6(O[C@H]65)C(=O)[C@@H]2[C@@H]43)[C@H]1C	microbial growth	resazurin	H37RV	–	–	> 100 µM
COc1ccc(-c2cc(-c3ccc(-n4cccc4)cc3)nc(N)n2)c(OC)c1	microbial growth	resazurin	H37RV	7 days	–	3.12 µg/mL
CCOC(=O)c1cnc(N/N=C/c2c(-c3ccccc3)nc3ncccn23)s1	–	MABA	H37Rv ATCC 27294	–	–	12.5 µg/mL
O=C(Nc1ccc(F)c(F)c1F)NC1C2CC3CC(C2)CC1C3 (stereo not drawn)	microbial growth	–	H37RV	–	–	0.0313 to 0.0625 µg/mL
